Published values collected from several papers.
Protocols differ between the studies behind these lines. “And” joins repeats or separate records; there may be more than shown. Numbers after ± are the reported error. ≈ marks a conversion by molar mass, not a printed value.
Chain of UniProt Q7M759 (whole entry, looked up): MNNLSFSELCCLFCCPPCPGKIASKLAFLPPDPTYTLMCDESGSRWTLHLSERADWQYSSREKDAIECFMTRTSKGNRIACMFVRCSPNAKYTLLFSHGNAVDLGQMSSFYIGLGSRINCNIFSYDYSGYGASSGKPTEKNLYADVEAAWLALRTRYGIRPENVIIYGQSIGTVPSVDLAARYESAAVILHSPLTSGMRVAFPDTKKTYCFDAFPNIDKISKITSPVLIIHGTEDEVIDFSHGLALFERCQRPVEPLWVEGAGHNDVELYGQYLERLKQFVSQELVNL
Chain of UniProt P21554 (whole entry, unmodified, looked up): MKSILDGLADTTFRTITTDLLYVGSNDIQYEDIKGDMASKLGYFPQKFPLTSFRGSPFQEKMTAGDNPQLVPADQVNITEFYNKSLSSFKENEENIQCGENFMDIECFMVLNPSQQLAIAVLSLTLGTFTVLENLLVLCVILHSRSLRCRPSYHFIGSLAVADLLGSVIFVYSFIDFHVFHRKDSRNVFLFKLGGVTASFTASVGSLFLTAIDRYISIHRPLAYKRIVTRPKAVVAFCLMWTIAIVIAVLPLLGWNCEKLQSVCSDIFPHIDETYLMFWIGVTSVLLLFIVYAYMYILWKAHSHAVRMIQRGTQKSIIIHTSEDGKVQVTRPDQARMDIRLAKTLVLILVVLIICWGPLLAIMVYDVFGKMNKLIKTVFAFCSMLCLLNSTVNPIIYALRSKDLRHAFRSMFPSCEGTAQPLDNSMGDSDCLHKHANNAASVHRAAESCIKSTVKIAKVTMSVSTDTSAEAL
Chain of UniProt P06748 (whole entry, looked up): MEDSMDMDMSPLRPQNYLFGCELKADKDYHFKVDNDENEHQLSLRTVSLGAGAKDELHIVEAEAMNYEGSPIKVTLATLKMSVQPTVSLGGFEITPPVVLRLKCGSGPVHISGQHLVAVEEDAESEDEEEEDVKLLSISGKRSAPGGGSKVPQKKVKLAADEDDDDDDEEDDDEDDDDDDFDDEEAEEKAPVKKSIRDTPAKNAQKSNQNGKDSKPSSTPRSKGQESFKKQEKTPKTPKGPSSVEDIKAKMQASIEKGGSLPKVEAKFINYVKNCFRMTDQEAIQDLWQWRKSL
Chain of UniProt P09619 (whole entry, looked up): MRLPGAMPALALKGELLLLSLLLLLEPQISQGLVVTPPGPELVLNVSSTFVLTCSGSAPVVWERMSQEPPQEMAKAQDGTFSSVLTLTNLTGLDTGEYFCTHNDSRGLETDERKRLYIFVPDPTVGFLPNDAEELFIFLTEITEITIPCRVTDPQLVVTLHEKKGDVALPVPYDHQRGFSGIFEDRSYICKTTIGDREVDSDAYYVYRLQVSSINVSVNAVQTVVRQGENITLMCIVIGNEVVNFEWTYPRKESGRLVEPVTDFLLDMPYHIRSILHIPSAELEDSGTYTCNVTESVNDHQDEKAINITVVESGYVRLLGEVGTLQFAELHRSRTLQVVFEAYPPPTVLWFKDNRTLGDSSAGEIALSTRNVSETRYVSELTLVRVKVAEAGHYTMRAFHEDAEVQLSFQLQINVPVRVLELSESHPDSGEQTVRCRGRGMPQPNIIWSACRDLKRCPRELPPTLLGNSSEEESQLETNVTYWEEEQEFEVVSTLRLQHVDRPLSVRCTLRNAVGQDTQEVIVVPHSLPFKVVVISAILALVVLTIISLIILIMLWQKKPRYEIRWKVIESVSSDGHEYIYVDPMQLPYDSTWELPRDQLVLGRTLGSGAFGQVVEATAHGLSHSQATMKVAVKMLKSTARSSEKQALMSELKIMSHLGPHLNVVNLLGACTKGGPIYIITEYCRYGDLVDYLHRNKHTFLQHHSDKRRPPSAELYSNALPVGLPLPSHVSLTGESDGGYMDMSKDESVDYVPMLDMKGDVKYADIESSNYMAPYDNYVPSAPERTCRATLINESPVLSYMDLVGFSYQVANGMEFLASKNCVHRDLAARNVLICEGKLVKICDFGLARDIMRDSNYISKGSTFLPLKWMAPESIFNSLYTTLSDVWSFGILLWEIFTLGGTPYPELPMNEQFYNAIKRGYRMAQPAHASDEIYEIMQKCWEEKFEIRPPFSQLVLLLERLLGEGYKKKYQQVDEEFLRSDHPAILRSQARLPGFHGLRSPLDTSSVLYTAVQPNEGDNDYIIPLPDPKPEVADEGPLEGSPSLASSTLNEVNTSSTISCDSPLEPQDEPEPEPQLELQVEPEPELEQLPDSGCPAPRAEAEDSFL
Chain of UniProt Q8IU85 (whole entry, looked up): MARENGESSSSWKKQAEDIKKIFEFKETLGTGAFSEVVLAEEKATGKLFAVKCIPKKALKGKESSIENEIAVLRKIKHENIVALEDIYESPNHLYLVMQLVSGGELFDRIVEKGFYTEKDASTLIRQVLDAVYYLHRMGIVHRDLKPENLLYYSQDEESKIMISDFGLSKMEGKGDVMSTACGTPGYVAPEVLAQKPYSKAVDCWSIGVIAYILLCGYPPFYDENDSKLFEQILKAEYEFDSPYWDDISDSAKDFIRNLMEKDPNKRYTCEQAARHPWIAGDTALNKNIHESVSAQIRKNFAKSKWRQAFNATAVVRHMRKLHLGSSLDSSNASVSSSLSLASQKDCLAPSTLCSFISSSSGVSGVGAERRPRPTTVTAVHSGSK
Chain of UniProt O00750 (whole entry, looked up): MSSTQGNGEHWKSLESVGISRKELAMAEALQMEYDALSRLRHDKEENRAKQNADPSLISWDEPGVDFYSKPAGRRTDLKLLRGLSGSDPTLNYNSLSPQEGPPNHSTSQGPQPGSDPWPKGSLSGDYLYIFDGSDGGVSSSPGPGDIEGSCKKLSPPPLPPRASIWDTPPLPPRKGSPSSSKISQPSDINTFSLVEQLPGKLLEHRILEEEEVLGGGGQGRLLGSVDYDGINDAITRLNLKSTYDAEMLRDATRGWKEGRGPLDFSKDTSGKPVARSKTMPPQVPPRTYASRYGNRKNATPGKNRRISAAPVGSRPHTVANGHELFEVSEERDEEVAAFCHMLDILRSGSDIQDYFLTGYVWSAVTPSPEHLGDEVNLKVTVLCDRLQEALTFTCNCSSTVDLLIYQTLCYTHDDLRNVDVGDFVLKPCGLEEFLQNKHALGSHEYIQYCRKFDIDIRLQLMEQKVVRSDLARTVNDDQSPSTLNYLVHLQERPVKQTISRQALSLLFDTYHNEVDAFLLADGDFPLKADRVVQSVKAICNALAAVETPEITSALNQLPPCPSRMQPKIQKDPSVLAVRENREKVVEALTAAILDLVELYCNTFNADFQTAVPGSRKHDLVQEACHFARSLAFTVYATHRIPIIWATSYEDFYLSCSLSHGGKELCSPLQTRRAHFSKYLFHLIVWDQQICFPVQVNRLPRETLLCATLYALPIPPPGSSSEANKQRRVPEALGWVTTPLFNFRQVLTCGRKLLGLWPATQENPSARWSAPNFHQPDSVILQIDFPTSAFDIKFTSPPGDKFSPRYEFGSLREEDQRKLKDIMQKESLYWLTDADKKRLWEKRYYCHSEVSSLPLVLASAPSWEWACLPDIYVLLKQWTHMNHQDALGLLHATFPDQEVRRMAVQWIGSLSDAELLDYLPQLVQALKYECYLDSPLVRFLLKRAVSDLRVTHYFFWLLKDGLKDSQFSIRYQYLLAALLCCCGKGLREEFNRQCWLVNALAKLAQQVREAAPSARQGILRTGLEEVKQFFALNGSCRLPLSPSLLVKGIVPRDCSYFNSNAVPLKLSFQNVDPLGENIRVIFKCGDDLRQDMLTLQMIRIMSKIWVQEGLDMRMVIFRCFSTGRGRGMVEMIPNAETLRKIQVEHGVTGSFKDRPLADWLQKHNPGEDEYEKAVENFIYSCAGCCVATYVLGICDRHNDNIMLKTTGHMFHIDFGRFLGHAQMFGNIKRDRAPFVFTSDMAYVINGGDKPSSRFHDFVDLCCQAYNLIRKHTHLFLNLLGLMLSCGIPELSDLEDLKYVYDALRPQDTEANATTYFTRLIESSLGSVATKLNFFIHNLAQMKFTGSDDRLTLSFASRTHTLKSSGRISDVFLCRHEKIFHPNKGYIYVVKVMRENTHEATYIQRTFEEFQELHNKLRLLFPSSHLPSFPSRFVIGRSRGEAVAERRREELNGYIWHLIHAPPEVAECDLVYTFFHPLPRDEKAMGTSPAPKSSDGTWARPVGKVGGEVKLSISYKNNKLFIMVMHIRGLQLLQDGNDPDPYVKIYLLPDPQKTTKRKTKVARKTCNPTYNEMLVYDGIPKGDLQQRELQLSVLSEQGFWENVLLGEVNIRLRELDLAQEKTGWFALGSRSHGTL

SMILES	tested on	assay	test system	conditions	how to read	quantity	value
CS(C)(=O)=Nc1ccc(-c2ccc(-c3nc4cc(O[C@@H]5CO[C@H]6[C@@H]5OC[C@H]6O)[nH]c4cc3F)cc2)cc1	Insulin-like growth factor 1 receptor, phosphorylated (IGF1R, Homo sapiens, UniProt P08069)	enzyme activity, inhibitor		10 µM		inhibition	-16%
CCN(Cc1ccc2nc(C)[nH]c(=O)c2c1)c1ccc(C(=O)NC(C(=O)O)C(C)C)cc1 (stereo not shown)	Mycobacterium tuberculosis	bacterial growth, inhibitor	H37Rv pptT conditional knockdown	PptT depleted, ATc withheld		MIC50	96 µM (≈ 41.9 µg/mL)
O=C1NC(=O)c2c1c1cc(F)c[n+]3c1c1c2c2cc(O)ccc2[n]1[Ru-4]312([N]=C=S)[S+]3CC[S+]1CC[S+]2CC3 (stereo not shown)	Tyrosine-protein kinase ABL1 (ABL1, Homo sapiens, UniProt P00519, T315I)	enzyme activity		100 nM, human enzyme, added: 10 µM ATP	relative to: untreated	remaining activity	103%
CC(C)CC(O)(CC(C)C)c1cn(C(=O)N2CCCC2)nn1	Alpha/beta hydrolase domain-containing protein 17B (Abhd17b, Mus musculus, UniProt Q7M759)	probe labelling, inhibitor, competitive ABPP-SILAC, measured: Fam108b1	mouse T cells	concentration not given, 4 h, in situ, single peptide	relative to: treated over DMSO, lower = more inhibition	SILAC ratio	1.18 and 1.35 and 1.23 and 1.22 and 1.3
CN(C)[C@H]1C[C@@]23CC[C@@]4(O2)C(=CC[C@]2(C)[C@@H](c5ccc6ccncc6c5)CC[C@H]24)C=C3[C@@H](O)[C@@H]1O	Calcium/calmodulin-dependent protein kinase type 1D (CAMK1D, Homo sapiens, UniProt Q8IU85)	ATP probe labelling, inhibitor, KiNativ profiling		1 µM		inhibition	1%
Cc1ccsc1C(=O)C1CCCN(Cc2cnc(N3CCCC3)s2)C1 (stereo not shown)	Trypanosoma cruzi	reporter mRNA translation, inhibitor, measured: Renilla luciferase mRNA	cell-free extract	concentration not given, test 1	relative to: positive over negative control	translation activity	106% and 126%
CCOC(=O)[C@@H]1Cc2c(cc([N+](=O)[O-])cc2[N+](=O)[O-])[C@H](O)[C@]12C(=O)Nc1ccc(Br)cc12	Platelet-derived growth factor receptor beta (PDGFRB, Homo sapiens, UniProt P09619)	binding, competition with immobilised ligand		0.1 µM		remaining binding	81%
Nc1ccc(/C=C/C(=O)N2CCc3c(oc4c(-c5ccc(F)cc5)cc(-c5ccc(C(=O)N6CCC(F)(F)CC6)cn5)cc34)C2)cn1	Phosphatidylinositol 4-phosphate 3-kinase C2 domain-containing subunit beta (PIK3C2B, Homo sapiens, UniProt O00750)	binding, competition with immobilised ligand		1 µM		remaining binding	100%
CC(C)[C@H]1NC(=O)C[C@H]2/C=C/CCSSC[C@@H](NC1=O)C(=O)N[C@H](Cc1cccc3ccccc13)C(=O)NCC(=O)O2	NPM/ALK (Nucleophosmin/ALK tyrosine kinase receptor) (NPM1/ALK, Homo sapiens, UniProt P06748+Q9UM73)	enzyme activity, inhibitor		10 µM		inhibition	1.2%
Cc1ccc2c(C(C[N+](=O)[O-])c3cccs3)c(-c3ccccc3)[nH]c2c1 (stereo not shown)	Cannabinoid receptor 1 (CNR1, Homo sapiens, UniProt P21554, S199A)	Gαi1-γ2 dissociation, BRET				Emax	74.4 ± 4.01%
